Measured values collected from several papers.
Every numbered part comes from another study and shows a few of its results, in no order.

Study 1
Target: Phosphate system positive regulatory protein PHO4, full length, GST-tagged (PHO4, Saccharomyces cerevisiae, UniProt P07270, residues 1-312)
Technique: competition protein-binding microarray
Molecule type: double-stranded DNA, one strand shown
Matrix: in vitro
Tested at: 2 µM
Setting: whole 60-bp probe, lowest competitor level
Added: Cbf1 competitor, 0.05 µM
Reading: higher = stronger binding
Target sequence (chain): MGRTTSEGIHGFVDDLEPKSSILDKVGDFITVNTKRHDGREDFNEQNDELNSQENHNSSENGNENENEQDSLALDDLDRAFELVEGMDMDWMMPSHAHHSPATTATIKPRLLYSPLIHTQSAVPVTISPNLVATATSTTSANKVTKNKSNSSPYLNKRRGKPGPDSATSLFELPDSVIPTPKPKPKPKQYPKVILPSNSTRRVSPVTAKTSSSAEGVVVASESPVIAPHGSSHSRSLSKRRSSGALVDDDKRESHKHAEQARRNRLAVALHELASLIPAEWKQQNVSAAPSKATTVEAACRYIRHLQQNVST
Oligonucleotide | fluorescence intensity
GCATCAGTCGGTCAACATGCGCAGGATGTTCCGTTTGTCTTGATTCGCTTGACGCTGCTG | 7280 a.u.
CGATCGTATTTTCGGCATGTGGATTATCCTTGCACCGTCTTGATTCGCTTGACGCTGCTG | 7830 a.u.
AATATTATTAAAAATTGCCGCTGTCATACTGTACGAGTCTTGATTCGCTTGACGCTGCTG | 3570 a.u.
CTCTCCATTCATTCACACGTCATACATGGCTAACTGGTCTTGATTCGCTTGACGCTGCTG | 6400 a.u.
GACAAATTAGATAATGAAAAAGATATGGGGTGGAAGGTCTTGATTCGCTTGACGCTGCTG | 3410 a.u.
GTCTCTCGTCCCATGCTCGTGCGATTTGTGCATTCAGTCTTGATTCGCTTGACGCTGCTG | 10600 a.u.
GAATGGTAACCCTGTCACCTGTCTTTGGGAAGGTGGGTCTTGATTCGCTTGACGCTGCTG | 4450 a.u.
CGTCCTAGTGATTGTCACAATACTTCCATGAGGAAGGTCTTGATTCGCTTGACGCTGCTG | 4690 a.u.
GTCTTGTCTCATTGAGTCGTGGGTGTCCCCACTTCAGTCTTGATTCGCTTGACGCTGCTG | 7010 a.u.
GGCGTTACTGATTTATACGTGGGTATCTACGATGATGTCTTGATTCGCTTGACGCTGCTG | 6810 a.u.
ATTAAACTTTTTAGACACATGACAAAGGCCATCGGCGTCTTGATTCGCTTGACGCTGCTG | 7720 a.u.
ATCCGCGCCCTTTGGCGTGTTCACCACAGAGTCGCGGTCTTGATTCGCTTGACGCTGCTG | 4710 a.u.
ATTCCTACTTTCCGTCACGTGGGACGCCCGTTTAGGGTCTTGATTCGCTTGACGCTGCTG | 14300 a.u.
CGACTTCAGCCAAATAACGTGGAGGCTCTGGAACAAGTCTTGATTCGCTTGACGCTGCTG | 8480 a.u.
CATACCCAACCTTGTCACCTAACTTAAGATATTTGTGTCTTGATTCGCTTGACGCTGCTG | 3640 a.u.
TTCATTTCCCAGAGCAGCATGACAGCTTGGTTTCTTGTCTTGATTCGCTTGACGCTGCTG | 5650 a.u.
TGCGCAACAACTTGATATGTGGGTGTATGTCTAGAAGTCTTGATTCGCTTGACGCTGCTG | 4580 a.u.
CTAACGAAGGTTTGTGATGTGGGTGACAAGCCAAGTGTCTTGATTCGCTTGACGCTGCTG | 4160 a.u.
CGGGGTTAAGTTTGTCTCGTGGGTGGCTTGCAGCAGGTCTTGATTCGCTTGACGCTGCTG | 10700 a.u.
TCTTGACATGTTCGGCACGCAAAATACCACCTAGGGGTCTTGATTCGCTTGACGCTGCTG | 5570 a.u.
TGAGCCTTCCCGTCGCGCGTGATGGGGAGATACAGAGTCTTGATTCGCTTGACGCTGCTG | 6710 a.u.
TTAGCTAATTTATCCCTCGTGGAATCTTGGAAGGAAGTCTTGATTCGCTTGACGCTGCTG | 9370 a.u.
AGACTGTATTTTTGTCACCTGTCGCGGCAACTTACTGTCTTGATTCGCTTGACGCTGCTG | 4330 a.u.

Study 2
Target: Prothrombin, mature alpha-thrombin (F2, Homo sapiens, UniProt P00734)
Technique: aptamer microarray, sandwich
Molecule type: DNA with 2'F-ANA
Matrix: in vitro
Tested at: 200 nM
Setting: whole 15-mer aptamer, many near background
Added: Cy3 exosite-II aptamer, 400 nM
Reading: higher = stronger binding
Oligonucleotide: GGTTGGTGTGGTTGG
Modification | mean fluorescence intensity [a.u.]
2'F-ANA at 2 5 7 9 10 11 12 14 | 45.5
2'F-ANA at 2 4 12 | 657
2'F-ANA at 3 4 10 13 14 | 211
2'F-ANA at 1 2 4 6 9 10 11 12 13 14 15 | 51.4
2'F-ANA at 1 5 6 9 11 15 | 54.5
2'F-ANA at 2 4 8 10 11 13 | 170
2'F-ANA at 4 6 8 9 12 13 14 | 98.8
2'F-ANA at 3 4 6 7 9 10 14 15 | 167
2'F-ANA at 6 8 12 13 14 15 | 209
2'F-ANA at 2 5 6 9 10 11 13 14 15 | 54.5
2'F-ANA at 1 3 4 8 10 14 15 | 49.7
2'F-ANA at 1 2 7 8 10 11 13 14 15 | 53.2
2'F-ANA at 4 5 6 7 13 14 15 | 43.4
2'F-ANA at 1 2 4 6 12 14 15 | 54.1
2'F-ANA at 4 7 11 13 14 15 | 99.7
2'F-ANA at 2 3 7 10 13 14 15 | 297
2'F-ANA at 1 2 5 8 9 10 13 15 | 49.2
2'F-ANA at 2 3 4 6 7 10 12 | 339
2'F-ANA at 2 4 6 10 | 85.8

Study 3
Target: Fragile X messenger ribonucleoprotein 1, C-terminal low-complexity region (Fmr1, Mus musculus, UniProt P35922)
Technique: RNA Bind-n-Seq
Molecule type: RNA
Matrix: in vitro
Tested at: 200 nM
Setting: whole 134-nt RNA, ends assumed
Added: 150 mM LiCl
Relative to: input library
Reading: higher = stronger binding
Library: 7-deaza-guanosine replaces G
Oligonucleotide | log2 enrichment
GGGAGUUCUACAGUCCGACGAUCACCAUGCAGGUGGGCAUCUUUGGGAAGUGGGGCAAGGGGGGGCUAGGGAGGGGGGUAACACUUUGGGAACAGGUGGUCCCAGGUCGUUUCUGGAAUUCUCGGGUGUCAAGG | 0.927
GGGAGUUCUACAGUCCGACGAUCUGUGCUACACAUCGUAUGUACCGAAUCGGGGAAAAAAAGGGGAAAAAAAGGGGAAAAAGGGGAAAGUAUUAUGUUACGCCGUUCGGAUCUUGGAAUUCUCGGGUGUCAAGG | 1.01
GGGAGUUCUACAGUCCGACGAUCGCAGGAAGUAAAAACAAAUGGAAAUGCUUCGGAUAGUGGCAGGGGUGGGGGAAACUAAGGAAAGGGUGGGAUGGGAGUGGGUAAAGAGUUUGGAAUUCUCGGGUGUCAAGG | 1.29
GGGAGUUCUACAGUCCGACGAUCCCUGUGCUACACAUCGUAUGUACCGAAUCGGGUUUUUUGGGUUUUUUGGGGUUUUUUGGGAAAGUAUUAUGUUACGCCGUUCGGAUCUGCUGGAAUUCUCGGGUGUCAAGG | -0.882
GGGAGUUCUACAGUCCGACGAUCUAACUUUAGAGGAGGAUCUGAUGGAUAUGGCAGUGGACGUGGAUUUGGGGAUGGCUAUAAUGGGUAUGGAGGAGGACCUGGUGGUGGCAAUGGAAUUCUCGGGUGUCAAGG | 0.118
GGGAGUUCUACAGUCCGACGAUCUAACUUUAGAGGAGGAUCUGAUGGAUAUGGCAGUGGACGUGGAUUUGGGGAUUGCUAUAAUGGGUAUGGAGGAGGACCUGGAGGUGGCAAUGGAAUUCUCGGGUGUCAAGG | -0.868
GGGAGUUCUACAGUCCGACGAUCAGUCCUGUGCUACACAUCGUAUGUACCGAAUCAAAUUUUUAAAUUUUUAAAUUUAAAAAAGUAUUAUGUUACGCCGUUCGGAUCUGCACUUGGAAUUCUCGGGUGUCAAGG | -3.33
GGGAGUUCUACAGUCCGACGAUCGUCCUGUGCUACACAUCGUAUGUACCGAAUCGGCCCCCGGGCCCCCGGGGCCCCCGGGGAAAGUAUUAUGUUACGCCGUUCGGAUCUGCAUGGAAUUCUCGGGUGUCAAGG | -3.16
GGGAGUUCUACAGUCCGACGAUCUCAAGUCCUGUGCUACACAUCGUAUGUACCGAAUCGGAGGAAAAAGGUUUUUGGAAAGUAUUAUGUUACGCCGUUCGGAUCUGCACUUCCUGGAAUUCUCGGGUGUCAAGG | -0.886
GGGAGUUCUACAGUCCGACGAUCGUCCUGUGCUACACAUCGUAUGUACCGAAUCGGGUUUUUGGGGUUUUUGGGUUUUUGGGAAAGUAUUAUGUUACGCCGUUCGGAUCUGCAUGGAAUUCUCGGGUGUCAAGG | -1.03
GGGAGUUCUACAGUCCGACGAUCUGUGCUACACAUCGUAUGUACCGAAUCGGGGAAAAAAAGGGGAAAAAAAGGGAAAAAAAGGGAAAGUAUUAUGUUACGCCGUUCGGAUCUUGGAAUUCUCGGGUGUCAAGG | 0.603

Study 4
Target: RNA binding protein fox-1 homolog 2, RRM domain, GST-SBP tag (RBFOX2, Homo sapiens, UniProt O43251-10, residues 100-194)
Technique: RNA Bind-n-Seq
Molecule type: RNA
Matrix: in vitro
Tested at: 365 nM
Setting: natural RNA segment, single round, ends assumed
Relative to: no-protein control
Reading: higher = stronger binding
Construct (chain): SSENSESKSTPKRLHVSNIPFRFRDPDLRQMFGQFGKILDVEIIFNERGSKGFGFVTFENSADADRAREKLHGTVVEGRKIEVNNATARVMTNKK
Oligonucleotide | RBNS enrichment (R)
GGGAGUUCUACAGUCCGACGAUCGUUAUAAUCCUAUAUAAAGCUACUCCUUGUUGCUGUGUGCAAGUUUACAUCAGGAUGCUCACGUGAUUUGUGAAUAUUUUCAUUCCAUCAACAAGGGAGUUUAAUUAUGUUGGAAUUCUCGGGUGCCAA | 0.768
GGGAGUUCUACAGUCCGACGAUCGAGAUUCAAGUCCCACCCGGCUCUUUUGGAUGAACCGCUGAGAGCCUCAGGACUGUUUUUGGGGGGCUGACUUGUCUUUCUACGUACGUACUUCCAGGCUGCAAGGUUUUUGGAAUUCUCGGGUGCCAA | 0.879
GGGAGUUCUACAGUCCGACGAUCAAGAAAUGGAAUUUAUUUAAAUACUGUUUAAGCUCAUGCUUGACACUAGUGGGACAGCGGUUUUCAAUGGUGCUGAUCAGUCGACUCGUCAACUCCUGUCAUUUUUAGAAUGGAAUUCUCGGGUGCCAA | 0.452
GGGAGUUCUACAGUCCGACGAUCCCAUCUUUAGUUAAUGGAAUUUUAAUUUAAAUGAAGCUUUGCUAAUUUUAAGUGGUAAGCAUUUUGCAUUAAAAUAUUCCUAUAAUAUUUUGUCGCUGUUCUUUGUCCUUUGGAAUUCUCGGGUGCCAA | 0.457
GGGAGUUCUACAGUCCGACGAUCUCCUAGGAACUUUUAAGACUUCUUGGUACCUAUGAACAUAGGUCCUCCCCUCACCCCAACUCUAGGUUUCCAGGCCUCACAGCCAAGCUGAAGCUUGGAGAAAACUCUGCUGGAAUUCUCGGGUGCCAA | 0.653
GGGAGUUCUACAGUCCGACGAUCUGAAGUUUUCAGAAGCAUGGGCAGUCGGCAGUAGUAACAGAGUCUCACCCCAGAAGGAAAAGAGGGGAUAGGGAAAACAAAAGAUUAUGCAAGCCCCCAGCCCUUCCUGAUGGAAUUCUCGGGUGCCAA | 38
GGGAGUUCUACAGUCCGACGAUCGCAUGUGCACCAGGUUGGUGUUCACCAGCUCAUGUCUUCCCCACAUCUCUUCUUGCCAGUAAGCAGCUUUGGUGGGCAGCAGCAGCUCAUGAAUGGCAAGCUGACAGCUUUGGAAUUCUCGGGUGCCAA | 3.87
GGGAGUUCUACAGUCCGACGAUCACGAGGGGCCUGCUGUUUGCCACCCAGCCCAACUUCCUGUUGCUGGCCCCUGCCCUCUGCCCUUUUGCCUGUCCUCAGGCCGCUGGAACAAAGGAAGGACAGCUCAUUCCUGGAAUUCUCGGGUGCCAA | 0.381
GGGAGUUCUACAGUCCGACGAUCUAGGCGUUUGCCUUGGAAAUGUGGAAAGUGCUUUACUAAAUAAUAAAAUUAAUUUUGUUUACGAGUGAAAGACAUUUUUUGCCAUACAUUGUAUGGUUGGAAUUGCCGGGUGGAAUUCUCGGGUGCCAA | 0.708
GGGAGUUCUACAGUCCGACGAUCGACCUCUUUCUGCACGAAAAAAGAAAGAAAAAUGACAGCUGGAAAAAGUCCUUUGUAUUGGCACAUGAUAAAUCUUGAUGACGGGCUAUAUUCUGAACAAACGCUUGCACUGGAAUUCUCGGGUGCCAA | 21.7
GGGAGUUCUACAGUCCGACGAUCCCUGAAGGGUCUACACCCUCGGCUCACCUAAGUGCCCUGUGCUGGUUGCCAGGCGCAGAGGGGAGGCCAGCCCUGCCCUCAGGACCUGCCUGACCUGCCAGUGAUGCCAAUGGAAUUCUCGGGUGCCAA | 0.235
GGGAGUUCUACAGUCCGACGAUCGAUUAAGGAAGGGUCAAGCCAGCCACUGCUGUGGCCCUGCCCAGGGCUUGGUUGAGGGAACGGCUUCUGGCUGUAUGGCUGCAUGUGACAAGCCACGUCCCCUCCCACCUUGGAAUUCUCGGGUGCCAA | 15.8

Repeated from above (study 1):
Oligonucleotide | fluorescence intensity
GTCTCTCGTCCCATGCTCGTGCGATTTGTGCATTCAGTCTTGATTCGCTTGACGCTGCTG | 10600 a.u.
GAATGGTAACCCTGTCACCTGTCTTTGGGAAGGTGGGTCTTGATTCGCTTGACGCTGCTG | 4450 a.u.
CGTCCTAGTGATTGTCACAATACTTCCATGAGGAAGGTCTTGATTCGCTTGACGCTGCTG | 4690 a.u.
